Measurements from different studies.
Numbers after ± are the reported error.
Target: Histone deacetylase 2 (HDAC2, Homo sapiens, UniProt Q92769)
UniProt Q92769, sequence (whole entry, looked up): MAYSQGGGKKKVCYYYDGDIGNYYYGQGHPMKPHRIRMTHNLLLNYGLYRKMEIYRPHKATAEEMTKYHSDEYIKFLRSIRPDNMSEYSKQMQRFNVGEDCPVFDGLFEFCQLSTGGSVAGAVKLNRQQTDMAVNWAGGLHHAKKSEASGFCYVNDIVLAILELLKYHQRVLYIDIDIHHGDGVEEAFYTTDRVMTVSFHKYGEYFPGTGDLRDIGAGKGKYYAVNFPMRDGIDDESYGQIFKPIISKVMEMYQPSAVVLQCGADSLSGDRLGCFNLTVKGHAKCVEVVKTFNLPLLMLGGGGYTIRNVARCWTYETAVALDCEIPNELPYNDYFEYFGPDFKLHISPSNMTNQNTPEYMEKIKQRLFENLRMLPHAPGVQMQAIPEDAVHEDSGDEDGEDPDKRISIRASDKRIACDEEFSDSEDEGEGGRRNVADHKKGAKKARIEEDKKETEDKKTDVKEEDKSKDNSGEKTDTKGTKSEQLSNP
Mode: inhibitor

Compound | observed | method | IC50 [nM]
O=c1c2ccccc2sn1-c1ccccc1 | enzyme activity | – | > 10000
CC1CCC(NC(=O)N(C)c2cnc3ccc(-c4ccc(OCCCCCC(=O)NO)nc4)cc3n2)CC1 (stereo not shown) | enzyme activity | fluorescence | 3.04
O=C(CCCCCCNCc1ccc([N+](=O)[O-])cc1)NO | enzyme activity | fluorescence | 2900
COC(=O)c1ccc(Cn2sc3ccccc3c2=O)cc1 | enzyme activity | – | > 10000
CN(C(=O)NC1CCCC1)c1cnc2ccc(-c3ccc(OCCCCCC(=O)NO)nc3)cc2n1 | enzyme activity | fluorescence | 8.52
Nc1ccc(-c2cccs2)cc1N | enzyme activity | – | > 33300
O=C(CCCCCCNCc1ccc(F)cc1)NO | enzyme activity | fluorescence | 1500
O=C(CCCCCCNC(=O)c1cc(C(=O)c2ccccc2)cn1Cc1ccc(F)cc1)NO | enzyme activity | – | 659
Nc1ccc(-c2cccs2)cc1NC(=O)c1ccccc1 | enzyme activity | – | 129
O=C(CCCCCCC(=O)Nc1ccccc1-[c-]1cccc1)NO.[Fe+2].c1cc[cH-]c1 | enzyme activity | fluorescence | 10
O=c1c2ccccc2on1-c1ccccc1 | enzyme activity | – | > 10000
O=C(NNCCCc1ccccc1)c1ccc(Br)cc1 | enzyme activity | – | > 50000
Cc1cc(CN2CCC(CCCCCCC(=O)NO)CC2)cc(C)c1-c1ncn(C)c1-c1ccc(C#N)c2ccccc12 | enzyme activity | – | 5.24 ± 0.87
O=C(CCCCCCN(Cc1ccc(F)cc1)Cc1ccc(F)cc1)NO | enzyme activity | fluorescence | 10000
O=C(NO)c1ccc(Cn2sc3ccccc3c2=O)cc1 | enzyme activity | – | > 10000
O=C(CCCCCCN(Cc1cc2ccccc2[nH]1)Cc1cc2ccccc2[nH]1)NO | enzyme activity | fluorescence | 3700
COCCn1cc2c(n1)CN(C(=O)Nc1nc(-c3ccc(F)cc3F)ccc1N)C2 | deacetylase activity | recombinant enzyme | 280
COc1ccc(CN(CCCCCCC(=O)NO)Cc2ccc(OC)c(OC)c2)cc1OC | enzyme activity | fluorescence | 1100
Nc1ccc(-c2ccc(F)cc2)cc1NC(=O)C1CCC1 | enzyme activity | – | 131
O=C(CCCCCCN(Cc1ccc2c(c1)OCO2)Cc1ccc2c(c1)OCO2)NO | enzyme activity | fluorescence | 4200
Nc1ccc(-c2ccc(F)cc2)cc1NC(=O)N1CCC1 | enzyme activity | – | 233
CN(C(=O)NC(C)(C)C)c1cnc2ccc(-c3ccc(OCCCCCC(=O)NO)nc3)cc2n1 | enzyme activity | fluorescence | 6.09

Excerpt of the above:
Compound | observed | method | IC50 [nM]
O=C(CCCCCCNC(=O)c1cc(C(=O)c2ccccc2)cn1Cc1ccc(F)cc1)NO | enzyme activity | – | 659
Nc1ccc(-c2ccc(F)cc2)cc1NC(=O)C1CCC1 | enzyme activity | – | 131
O=C(CCCCCCC(=O)Nc1ccccc1-[c-]1cccc1)NO.[Fe+2].c1cc[cH-]c1 | enzyme activity | fluorescence | 10
